Measured values pooled from the literature.
Every numbered part comes from another study and shows a few of its results, in no order. Positions count from the first letter of the parent shown.

Set 1
Target: Histone acetyltransferase KAT6A, winged helix 1, GST fusion (KAT6A, Homo sapiens, UniProt Q92794, residues 1-85)
Method: protein binding microarray
Form: double-stranded DNA, one strand shown
Sample: in vitro
Concentration: not given
Setting: 8-mer, flanks averaged, mean of 2 arrays, mostly near background
Baseline: not given
Reading: higher = stronger binding
Construct (chain): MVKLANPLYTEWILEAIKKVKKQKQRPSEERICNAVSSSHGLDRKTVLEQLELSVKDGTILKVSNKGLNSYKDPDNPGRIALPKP
| Sequence | E-score |
| --- | --- |
| ATGCCGAA | 0.17 |
| GTCATCGA | -0.0602 |
| CATATGAA | -0.1 |
| AAAATTAT | 0.0251 |
| TACGCAGA | 0.00195 |
| CACGGTAA | 0.211 |
| CCAACCTA | -0.182 |
| CACTTTTC | -0.124 |
| GCGAAGTA | 0.11 |
| ACAGTGAG | -0.175 |
| ACTAGGAC | -0.121 |
| GATAATCA | 0.0445 |
| ATAGCAAA | -0.234 |
| AGTAAGAT | -0.0548 |
| CAACAGAC | -0.00931 |

Set 2
Target: RNA binding protein fox-1 homolog 2, RRM domain, GST-SBP tag (RBFOX2, Homo sapiens, UniProt O43251-10, residues 100-194)
Method: RNA Bind-n-Seq
Form: RNA
Sample: in vitro
Concentration: 365 nM
Setting: natural RNA segment, single round, ends assumed
Baseline: no-protein control
Reading: higher = stronger binding
Shared flanks, not repeated: GGGAGUUCUACAGUCCGACGAUC … UGGAAUUCUCGGGUGCCAA
Residues (chain): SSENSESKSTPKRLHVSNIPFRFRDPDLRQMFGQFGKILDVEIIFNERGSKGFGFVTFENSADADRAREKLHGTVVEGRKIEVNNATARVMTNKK
| Sequence | RBNS enrichment (R) |
| --- | --- |
| CCCACCACAGGCAUAAGCUAUCACCUAGCAGCCUCAAAACGGGUCAGUAUUAAGGUUUUCAACCGGAAGGAGGCCAACCAGCCCGACAGUGCCAUCCCCACCUUCACCUC | 0.235 |
| CUCAGCAGAGCACUGACACACACAGGAGACUUUUCUCGAUUAACCGCCCUGCCCGAGCAGCGUUCCUUUGGAGGGAGGCUGCAGAUCAUCCAGGGCUGCCCCUUCCGUUA | 0.324 |
| CACUGAGAGUCAGGGCAUGGUGCUGCGGGGGAGGGCUCUUUUCUAUAUUUAUUUGAUAGCGAUAAGUCUCCGAAGGGAGUGGAAAUGCAGUCAGCCUGGGCCCUUAGCCC | 0.522 |
| CAUUUGUUCAUCAAGAUCAAUAGAAUCUUACCAGUGGGUAGGAAAGGAUCAUAUAAAAUAUGAAGAAAUAGCCAUAUUAAAUUUUUUGCUGUCAUUUGCCUCCGCAACAA | 0.431 |
| AGAAAUGCACUACAAAGUUAAGACAGAUUUUUGCUAAGUGCAGGAGGCCCUUUAUUAUUGCUGCAGAAAACAAAAGCCUGGCUGAGUUGAUGUUUUACAUUCUCCCUUAC | 0.407 |
| UUCAGUUCCCGUCUCAGCUGUACUUUUGUGGGCCUGUCAUCUUGAUGACCAGAAUGAAAGCUUGCUCUGCCUCCUGCCAGCCAGAAUUGGUGGCGGGACUUGGGGAUACA | 1.28 |
| UACCGCUUCAGAGUGCAUGGGGAGCCCGCCCACUAGCCCUGCUUACUGGUGCCUGCUGCCAGCCAUCUGGGAGUGGGUGAACAGCACCCCGCCGCUUCCCCCACACGCUU | 0.29 |
| UUAAUCGGUGCUUUAUGGAGGCCAGUGUAACGUUACAUGACUCGUUGAGAAAGUUGAGGAAUUUCCUCUACCACCUUUGUUGCUUGAAGAAAAACAUGUCUUUUCAAAAU | 0.604 |
| GGAAGCCAUGUGUAACAGAGCUUAGACAUCUGAAACUAAUCAAUGCUGAGGUGGCUAAAUACCUAGCCUUUUACAUGGAAACCUGUCUGCAAAAUUAGCUUUUUUUAAAA | 0.414 |
| UAAUUUUAAUAGAUAAUAAUCAUAAAAUAUGUAGAACAUUUUGUCAAUUUGCAAGAUAAGUUAUGGGUCACAUGAACAGUCAUGGCAUUUAGCACGUUAUAGGAAAUUAU | 4.38 |
| AGAAUGUAACUGUUGAUGUGAGCAGCAGAAAUCUGCUUAUAGAUAACAUACUGUUAAUAUUUAAUUAAAAGCAUUGUUUUUUCUAGAGCUGAGAAAUAGAAGCUAAAGAA | 0.522 |
| CUGCUAAGUAGGGUGGACUGGGCAAAGCAAUGAACUUUCAGGCAUUCGAGCUACUUCAUCUGCAUAAGGAAAUCCUCAAUGUAGGUGAGUCAGGUCUGUUCCCCAACUGA | 0.266 |

Set 3
Target: CCNF, cyclin fold, Cln2 fusion (human)
Method: yeast growth competition, sequencing
Sample: yeast
Setting: strong parent motif
Baseline: not given
Reading: higher = stronger binding
Parent: SLBP docking peptide (human); ARYKRKLLINDFG; partner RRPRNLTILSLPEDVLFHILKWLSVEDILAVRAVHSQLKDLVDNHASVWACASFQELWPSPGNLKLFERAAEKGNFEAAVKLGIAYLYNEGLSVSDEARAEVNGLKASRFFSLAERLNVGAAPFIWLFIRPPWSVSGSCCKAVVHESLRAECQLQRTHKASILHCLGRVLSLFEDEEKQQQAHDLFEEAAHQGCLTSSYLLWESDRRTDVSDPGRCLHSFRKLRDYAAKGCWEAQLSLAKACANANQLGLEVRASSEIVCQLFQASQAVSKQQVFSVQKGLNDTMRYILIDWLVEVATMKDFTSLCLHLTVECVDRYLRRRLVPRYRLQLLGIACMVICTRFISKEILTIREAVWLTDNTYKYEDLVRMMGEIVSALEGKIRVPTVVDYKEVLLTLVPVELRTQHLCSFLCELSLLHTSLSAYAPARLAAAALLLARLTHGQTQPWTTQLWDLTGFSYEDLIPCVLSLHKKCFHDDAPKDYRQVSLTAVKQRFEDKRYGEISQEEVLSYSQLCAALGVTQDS
| Substitution | normalised enrichment score |
| --- | --- |
| AKYKRKLLINDFG [R2K] | 2.42 |
| ARYKRKLLINDFY [G13Y] | 1.32 |
| ARYKRKLLINSFG [D11S] | 1.78 |
| ARYPRKLLINDFG [K4P] | 1.34 |
| ARYKRKLEINDFG [L8E] | 1.23 |
| ARYKRKLLINKFG [D11K] | 2.6 |
| AMYKRKLLINDFG [R2M] | 1.04 |
| QRYKRKLLINDFG [A1Q] | 0.441 |
| ARYKMKLLINDFG [R5M] | 2.32 |
| ARYKRKLLHNDFG [I9H] | 1.27 |
| ARYKRKLLLNDFG [I9L] | 2.15 |
| ARYKRKLLINDFH [G13H] | 1.72 |
| ARYKRKLCINDFG [L8C] | 0.598 |
| ARYKRKLLINDHG [F12H] | 0.706 |

Single results of other studies
| Substance | target | test | test system | conditions | scale | quantity | value |
| --- | --- | --- | --- | --- | --- | --- | --- |
| PhoQ, residues 284 288 289 292 302 303 SIHLQL | PhoP, residues 12 14 15 18 19 NQFFI (Escherichia coli, UniProt P23836) | Sort-seq, item: YFP reporter | E. coli | PhoQ-PhoP variant library, added: 10 µM Mg2+ | baseline: high Mg2+ state, higher = stronger signaling | fold induction | 15.6 |
